Measurements pooled from the literature.
Numbered parts are unrelated; each lists some results of a single study.
Chain of UniProt Q9HAZ1 (whole entry, looked up): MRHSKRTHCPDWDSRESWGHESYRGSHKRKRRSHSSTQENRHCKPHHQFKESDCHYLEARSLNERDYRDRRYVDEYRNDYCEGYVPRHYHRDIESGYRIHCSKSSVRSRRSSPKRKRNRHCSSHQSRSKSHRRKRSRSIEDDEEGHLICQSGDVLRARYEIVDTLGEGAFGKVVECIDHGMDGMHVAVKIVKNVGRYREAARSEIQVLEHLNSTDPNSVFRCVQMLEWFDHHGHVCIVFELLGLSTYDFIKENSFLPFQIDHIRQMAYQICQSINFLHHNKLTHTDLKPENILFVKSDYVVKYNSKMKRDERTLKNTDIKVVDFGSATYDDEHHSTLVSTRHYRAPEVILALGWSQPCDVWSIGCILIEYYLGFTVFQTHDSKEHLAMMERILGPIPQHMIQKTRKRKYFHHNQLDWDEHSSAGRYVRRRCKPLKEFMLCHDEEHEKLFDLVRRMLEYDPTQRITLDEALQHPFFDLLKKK
Chain of UniProt P51956 (whole entry, looked up): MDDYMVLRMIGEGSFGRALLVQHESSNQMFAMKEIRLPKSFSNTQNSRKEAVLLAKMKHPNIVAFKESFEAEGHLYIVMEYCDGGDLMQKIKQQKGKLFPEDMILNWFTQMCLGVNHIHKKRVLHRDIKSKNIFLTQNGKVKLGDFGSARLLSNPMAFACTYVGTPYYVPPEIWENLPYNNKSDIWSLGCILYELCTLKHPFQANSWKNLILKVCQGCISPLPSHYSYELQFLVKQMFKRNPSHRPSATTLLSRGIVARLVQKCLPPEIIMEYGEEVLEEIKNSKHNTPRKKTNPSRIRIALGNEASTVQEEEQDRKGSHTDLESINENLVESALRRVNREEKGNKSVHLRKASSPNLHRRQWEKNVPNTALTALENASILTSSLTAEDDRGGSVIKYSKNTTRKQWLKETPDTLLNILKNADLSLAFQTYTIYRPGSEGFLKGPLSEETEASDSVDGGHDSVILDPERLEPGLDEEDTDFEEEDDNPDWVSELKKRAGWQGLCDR
Chain of UniProt P31152 (whole entry, looked up): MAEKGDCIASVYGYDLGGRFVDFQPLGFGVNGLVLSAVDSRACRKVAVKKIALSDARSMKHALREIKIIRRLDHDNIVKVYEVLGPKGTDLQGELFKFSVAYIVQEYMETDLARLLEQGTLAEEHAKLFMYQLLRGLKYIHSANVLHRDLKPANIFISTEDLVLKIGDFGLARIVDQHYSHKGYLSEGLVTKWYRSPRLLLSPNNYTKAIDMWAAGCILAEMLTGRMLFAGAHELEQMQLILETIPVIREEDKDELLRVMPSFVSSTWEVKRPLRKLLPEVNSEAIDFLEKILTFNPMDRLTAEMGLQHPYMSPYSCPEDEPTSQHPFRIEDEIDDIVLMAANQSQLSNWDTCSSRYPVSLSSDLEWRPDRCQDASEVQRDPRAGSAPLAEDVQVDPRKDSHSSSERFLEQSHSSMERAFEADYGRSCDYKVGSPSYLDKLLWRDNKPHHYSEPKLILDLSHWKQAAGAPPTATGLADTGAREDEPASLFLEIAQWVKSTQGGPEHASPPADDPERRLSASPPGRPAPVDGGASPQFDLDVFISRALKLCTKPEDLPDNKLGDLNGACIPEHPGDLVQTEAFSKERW
Chain of UniProt P32298 (whole entry, looked up): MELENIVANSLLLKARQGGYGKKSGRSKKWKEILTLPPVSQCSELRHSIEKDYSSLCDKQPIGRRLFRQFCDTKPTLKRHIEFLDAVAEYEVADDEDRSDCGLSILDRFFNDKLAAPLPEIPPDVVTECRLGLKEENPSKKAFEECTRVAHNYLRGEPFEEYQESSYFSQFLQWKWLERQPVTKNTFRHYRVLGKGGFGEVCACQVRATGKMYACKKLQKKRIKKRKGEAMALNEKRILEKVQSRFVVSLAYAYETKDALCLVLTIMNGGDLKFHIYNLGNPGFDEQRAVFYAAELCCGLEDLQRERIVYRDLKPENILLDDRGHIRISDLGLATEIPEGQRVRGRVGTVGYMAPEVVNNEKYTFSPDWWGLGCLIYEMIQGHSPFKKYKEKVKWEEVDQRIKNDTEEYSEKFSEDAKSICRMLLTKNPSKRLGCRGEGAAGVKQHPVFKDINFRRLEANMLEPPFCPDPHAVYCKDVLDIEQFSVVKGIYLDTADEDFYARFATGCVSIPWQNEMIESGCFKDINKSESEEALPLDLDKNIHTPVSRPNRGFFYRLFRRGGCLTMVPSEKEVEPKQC
Chain of UniProt Q02750 (whole entry, looked up): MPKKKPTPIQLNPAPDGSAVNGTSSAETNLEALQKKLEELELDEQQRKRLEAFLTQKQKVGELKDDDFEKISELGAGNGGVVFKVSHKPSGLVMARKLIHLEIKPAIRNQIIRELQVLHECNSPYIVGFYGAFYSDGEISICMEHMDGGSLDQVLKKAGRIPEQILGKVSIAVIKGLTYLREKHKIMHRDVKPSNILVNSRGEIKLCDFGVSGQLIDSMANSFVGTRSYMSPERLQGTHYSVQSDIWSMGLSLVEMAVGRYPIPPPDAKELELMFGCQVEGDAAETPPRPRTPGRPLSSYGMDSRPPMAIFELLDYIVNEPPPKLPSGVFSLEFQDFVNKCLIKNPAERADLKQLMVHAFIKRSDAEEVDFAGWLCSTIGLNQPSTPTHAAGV
Chain of UniProt P42681 (whole entry, looked up): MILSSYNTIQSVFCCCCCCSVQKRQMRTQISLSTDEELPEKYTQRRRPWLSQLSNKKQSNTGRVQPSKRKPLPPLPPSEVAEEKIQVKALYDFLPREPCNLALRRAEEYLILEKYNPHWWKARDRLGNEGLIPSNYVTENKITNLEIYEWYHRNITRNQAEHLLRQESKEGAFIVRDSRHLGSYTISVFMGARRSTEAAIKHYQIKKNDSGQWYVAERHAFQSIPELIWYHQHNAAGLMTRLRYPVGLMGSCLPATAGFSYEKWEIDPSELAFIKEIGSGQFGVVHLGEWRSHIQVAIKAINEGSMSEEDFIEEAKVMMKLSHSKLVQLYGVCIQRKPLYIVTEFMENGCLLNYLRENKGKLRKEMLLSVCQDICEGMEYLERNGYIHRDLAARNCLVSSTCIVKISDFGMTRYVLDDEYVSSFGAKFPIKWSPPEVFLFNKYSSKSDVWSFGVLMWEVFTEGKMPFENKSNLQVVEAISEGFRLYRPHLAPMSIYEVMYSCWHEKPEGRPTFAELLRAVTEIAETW
Chain of UniProt O75676 (whole entry, looked up): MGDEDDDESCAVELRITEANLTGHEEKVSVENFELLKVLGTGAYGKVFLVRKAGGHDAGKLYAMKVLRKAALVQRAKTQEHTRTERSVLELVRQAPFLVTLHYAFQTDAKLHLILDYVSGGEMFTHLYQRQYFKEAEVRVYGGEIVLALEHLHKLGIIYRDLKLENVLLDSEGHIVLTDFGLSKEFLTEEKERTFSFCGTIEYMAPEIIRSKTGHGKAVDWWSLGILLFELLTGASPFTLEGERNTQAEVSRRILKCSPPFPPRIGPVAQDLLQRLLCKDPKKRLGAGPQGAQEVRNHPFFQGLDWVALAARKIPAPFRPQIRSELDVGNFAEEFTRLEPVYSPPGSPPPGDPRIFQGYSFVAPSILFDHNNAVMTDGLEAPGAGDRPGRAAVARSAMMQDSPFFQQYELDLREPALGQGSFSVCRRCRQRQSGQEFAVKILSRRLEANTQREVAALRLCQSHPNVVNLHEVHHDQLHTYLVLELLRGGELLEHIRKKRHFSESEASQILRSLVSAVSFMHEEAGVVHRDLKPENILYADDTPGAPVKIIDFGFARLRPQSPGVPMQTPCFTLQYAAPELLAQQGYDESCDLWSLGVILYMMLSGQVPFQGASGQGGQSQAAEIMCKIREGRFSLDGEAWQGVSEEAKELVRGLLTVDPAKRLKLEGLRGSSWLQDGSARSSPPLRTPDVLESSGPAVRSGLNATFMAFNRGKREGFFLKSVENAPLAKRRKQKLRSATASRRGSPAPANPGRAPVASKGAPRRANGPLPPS
Chain of UniProt Q9UIK4 (whole entry, looked up): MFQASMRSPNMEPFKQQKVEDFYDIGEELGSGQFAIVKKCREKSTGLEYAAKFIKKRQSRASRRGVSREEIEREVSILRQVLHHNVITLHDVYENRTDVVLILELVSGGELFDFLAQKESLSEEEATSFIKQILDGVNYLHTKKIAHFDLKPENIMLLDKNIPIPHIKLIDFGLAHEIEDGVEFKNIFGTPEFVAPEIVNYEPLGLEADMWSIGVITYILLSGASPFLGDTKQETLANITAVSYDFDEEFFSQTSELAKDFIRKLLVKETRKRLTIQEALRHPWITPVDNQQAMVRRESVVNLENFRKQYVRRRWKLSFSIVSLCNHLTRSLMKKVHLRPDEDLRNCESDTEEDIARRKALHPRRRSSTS

Sample 1
SMILES: O=C(Nc1cccc(Nc2nccc(Nc3cccc(C(F)(F)F)c3)n2)c1)C1CC1
Read-out: enzyme activity
Action: inhibitor
Tested at: 0.5 µM
Baseline: control
target	remaining activity [%]
Ribosomal protein S6 kinase alpha-4 (RPS6KA4, Homo sapiens, UniProt O75676)	104
Dual specificity protein kinase CLK4 (CLK4, Homo sapiens, UniProt Q9HAZ1)	84.3
Mitogen-activated protein kinase 14 (MAPK14, Homo sapiens, UniProt Q16539)	91.5
Dual specificity protein kinase CLK3 (CLK3, Homo sapiens, UniProt P49761)	104
Calcium/calmodulin-dependent protein kinase type IV (CAMK4, Homo sapiens, UniProt Q16566)	97.9
RAC-beta serine/threonine-protein kinase (AKT2, Homo sapiens, UniProt P31751)	107
Serine/threonine-protein kinase Nek3 (NEK3, Homo sapiens, UniProt P51956)	95.8
Serine/threonine-protein kinase PAK 3 (PAK3, Homo sapiens, UniProt O75914)	98.9
G protein-coupled receptor kinase 4 (GRK4, Homo sapiens, UniProt P32298)	96.9
Dual specificity mitogen-activated protein kinase kinase 1 (MAP2K1, Homo sapiens, UniProt Q02750)	98
Tyrosine-protein kinase TXK (TXK, Homo sapiens, UniProt P42681)	90.2
Hepatocyte growth factor receptor (MET, Homo sapiens, UniProt P08581)	87.7
cGMP-dependent protein kinase 2 (PRKG2, Homo sapiens, UniProt Q13237)	96.2

Sample 2
SMILES: CCc1ccccc1C(=O)Nc1n[nH]c2c(C)c(F)c(C3C(C#N)=C(C)N(C)C(C)=C3C#N)cc12
Method: competition with immobilised ligand
Tested at: 1 µM
target	read-out	remaining binding [%]
Mitogen-activated protein kinase 4 (MAPK4, Homo sapiens, UniProt P31152)	cell-free assay	96
Serine/threonine-protein kinase LATS1 (LATS1, Homo sapiens, UniProt O95835)	cell-free assay	100
Phosphatidylinositol 4,5-bisphosphate 3-kinase catalytic subunit alpha isoform (PIK3CA, Homo sapiens, UniProt P42336, E545K)	cell-free assay	100
Epidermal growth factor receptor (EGFR, Homo sapiens, UniProt P00533, G719C)	cell-free assay	55
Bone morphogenetic protein receptor type-1A (BMPR1A, Homo sapiens, UniProt P36894)	binding	87
Death-associated protein kinase 2 (DAPK2, Homo sapiens, UniProt Q9UIK4)	cell-free assay	63
Serine/threonine-protein kinase Sgk1 (SGK1, Homo sapiens, UniProt O00141)	cell-free assay	100
Insulin-like growth factor 1 receptor (IGF1R, Homo sapiens, UniProt P08069)	cell-free assay	87

Sample 3
Species: mouse
Matrix: microsomes or S9
Tested at: 2 µM
Time: 0.5 h
SMILES	remaining compound
CCOc1cc(=O)n2c(c1C(=O)N(CC)Cc1ccncc1)CCCCC2	35.3%
CC(C)(C)N1CC(C(=O)NCCOc2ccc(-c3ccccc3)cc2)CC1=O (stereo not drawn)	3.16%
COCSc1c(C(O)(CF)c2cnn(C)c2SCOC)cnn1C	27.4%
CCOc1cc(=O)n2c(c1C(=O)NC1CCc3ccccc31)CCCCC2 (stereo not drawn)	4.49%
Oc1cc(CCn2cnc(-c3ccccc3)c2-c2cccc3cccnc23)ncn1	83.8%
COc1ccc(-c2ccnc3cc(C4CCCCC4)nn23)cc1OC1CCCC1	13.5%

Sample 4
Target: Calcium/calmodulin-dependent protein kinase type II subunit alpha (CAMK2A, Homo sapiens, UniProt Q9UQM7)
Chain of UniProt Q9UQM7 (whole entry, looked up): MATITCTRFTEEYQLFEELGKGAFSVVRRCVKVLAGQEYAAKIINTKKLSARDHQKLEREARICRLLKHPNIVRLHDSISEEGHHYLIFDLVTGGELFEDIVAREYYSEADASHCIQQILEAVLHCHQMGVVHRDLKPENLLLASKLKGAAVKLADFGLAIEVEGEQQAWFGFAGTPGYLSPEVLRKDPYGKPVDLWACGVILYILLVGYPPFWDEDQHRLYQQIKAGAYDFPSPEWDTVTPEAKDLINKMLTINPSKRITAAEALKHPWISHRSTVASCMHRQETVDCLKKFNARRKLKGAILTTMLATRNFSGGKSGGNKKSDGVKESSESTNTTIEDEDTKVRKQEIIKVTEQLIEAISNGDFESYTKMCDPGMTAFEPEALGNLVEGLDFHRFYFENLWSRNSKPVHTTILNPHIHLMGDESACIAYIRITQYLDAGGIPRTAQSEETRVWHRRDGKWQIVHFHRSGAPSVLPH
Read-out: enzyme activity
Action: inhibitor
Tested at: 10 µM
SMILES	inhibition [%]
C=C1[C@@H]2CC[C@@H]3[C@](C2)(C(=O)[C@@H](O)[C@@H]2C(C)(C)[C@H]4CC(=O)[C@@]32CO4)[C@@H]1OC(C)=O	-12
C[C@@H]1CN(c2c(F)c(N)c3c(=O)c(C(=O)O)cn(C4CC4)c3c2F)C[C@H](C)N1	-9
COc1cc2c(cc1O)CC[C@@H]1[C@@H]2CC[C@]2(C)[C@@H](O)CC[C@@H]12	-18
O=C(O)Cc1cccnc1	16
Oc1ccc2c(c1)CC[C@H](c1ccccc1)[C@@H]2c1ccc(OCCN2CCCC2)cc1	6
CC(C)c1cc2c(c(O)c1O)[C@@]13CCCC(C)(C)[C@@H]1[C@H](OC3=O)[C@H]2O	-17
CC(C)=CC(=O)O[C@H]1Cc2cc3ccc(=O)oc3cc2OC1(C)C	-27
OCc1ccccc1	14
CSCCC(O)C(=O)O (stereo not drawn)	-50

Some of these lines once more (sample 3):
SMILES	remaining compound
CCOc1cc(=O)n2c(c1C(=O)N(CC)Cc1ccncc1)CCCCC2	35.3%
CC(C)(C)N1CC(C(=O)NCCOc2ccc(-c3ccccc3)cc2)CC1=O (stereo not drawn)	3.16%
COCSc1c(C(O)(CF)c2cnn(C)c2SCOC)cnn1C	27.4%
CCOc1cc(=O)n2c(c1C(=O)NC1CCc3ccccc31)CCCCC2 (stereo not drawn)	4.49%
Oc1cc(CCn2cnc(-c3ccccc3)c2-c2cccc3cccnc23)ncn1	83.8%
